Assay results of several laboratories.
Numbered parts are unrelated; each lists some results of a single study.

Study 1 — method: protein-binding microarray; molecule type: double-stranded DNA, one strand shown; medium: in vitro; tested at: 940 nM top; setting: 60-bp whole probe; added: salmon DNA 0.4 mg/ml; relative to: random background probes; reading: higher = stronger binding; constant ends, left off below: GCCTAGCAC … GTCTTGATTCGCTTGACGCTGCTG
Target: Interferon regulatory factor 5, full length, phosphomimetic (IRF5, Homo sapiens, UniProt Q13568-2, residues 1-514, S451D/S453D/S456D/S462D)
Strand | fitted relative affinity
GACGTTATCCTTCTCCTGACGTGCTAG | 0.504 z-score
GACGGTTACGACTTTCGGGACGTGCTA | 0.922 z-score
GACGAACTGAGTTTCGCGACGTGCTAG | 0.761 z-score
GACGATATCAGACTGGGGACGTGCTAG | -0.184 z-score
GACGGTTTCGGGTTTGGGGACGTGCTA | 8.71 z-score
TTAGGTATCCTTCTCCTTTTGTGCTAG | 0.915 z-score
TCTCCTCCCCCTCTGCCACCGTGCTAG | 0.317 z-score
GTCGAACTGGGGTATCGAGACGTGCTA | 1.95 z-score
GATGGTTTCGACTATCGGGACGTGCTA | 9.71 z-score
GACGGTATCGGTATCCGGACGTGCTAG | 10.1 z-score
TTAGGTTTCGACTTTCGGTTCGTGCTA | 9.52 z-score
AGGCTCATACATCTGGGTGGGTGCTAG | -0.0715 z-score
GACGGTATCGACTGTCGGGACGTGCTA | 4.48 z-score
TTCGATATCGGGTATCGATTAGTGCTA | 3.56 z-score
GACGAAGTGAGTCTCGAGACGTGCTAG | 0.957 z-score
TTAGATCTCCGACTGGATTAGTGCTAG | -0.257 z-score
GACGGTTTCGGGTATCGGGAGGTGCTA | 9.44 z-score
TTAGGTCTCCTTATCCATTAGTGCTAG | 0.317 z-score
CCGTAGCTTCCTTTCGCCGCGTGCTAG | 0.442 z-score
GACGATCCCAGTATCGAGACGTGCTAG | 1.83 z-score
TTAGATATTGGGTATCGATTAGTGCTA | 3.32 z-score
GACGGACTGGGTATCCGGACGTGCTAG | -0.613 z-score
GACGATTTCAGACTGGAGATGTGCTAG | -0.384 z-score
CTTTCTCCCAAGTCTTGTTTTGTGCTA | 1.59 z-score
GAGGGTATCCTTTTCCTGACGTGCTAG | -0.1 z-score

Study 2 — method: RNA Bind-n-Seq; molecule type: RNA; medium: in vitro; tested at: 365 nM; relative to: no-protein control; reading: higher = stronger binding
Target: RNA binding protein fox-1 homolog 2, RRM domain, GST-SBP tag (RBFOX2, Homo sapiens, UniProt O43251-10, residues 100-194)
Setting: natural RNA segment, single round, ends assumed
Constant ends, left off below: GGGAGUUCUACAGUCCGACGAUC … UGGAAUUCUCGGGUGCCAA
Target sequence (chain): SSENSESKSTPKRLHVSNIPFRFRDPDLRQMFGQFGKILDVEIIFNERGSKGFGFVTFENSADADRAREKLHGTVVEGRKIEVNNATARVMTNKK
Strand | RBNS enrichment (R)
ACUAACUCAUCUUUGCAAAAGGAACUGCUCCCUCGGCGUGCCCCAGCUGGGGCCUCUGAAGGGAUUCCUCACUGUGGGCAGCUGCCCUGAGCUUCAGGCAGCAGUGUUUA | 0.287
AGCAUAUGGGAGUAUUUUUUCACAUUUUCUUUGUAUAAAAUUUGUAUUAAACUUAAAUAUCUUUUUUAUGAUGGCGUUUCUUCAUGGCUGAACAGCGUCCUCUCGCGGUU | 0.479
UUGAUGGGGUCUUUCCAUCCUCACCCUUAGACUCUCAACCAAAGAGAAAGGGCUGGAGGAUGCCCCCCACAUACUGCCACUAUUUAUUGUGGGCCCUGGAGGCUCCCUGC | 0.606
UCCAGAAAGAAGUUUGUAAAGAAAAGGUGACAUUGCAAGCCCUGCAUGCAAAGCAGACUGCAGCUAGUUAAGAGGAGGCUGCAGUAUCAUCCCUAGUAUCUGCUCUGCAA | 6.9
GACCUAACAUUGGGGACUUAAAUGCCUUCUUAUCCAAUAUAUCUUCUCAGAUGGGAUGACUGCGGGUCAGUGCACCGAAGAGGCGGGCGCAGGCGCUGUCUGGCUCAGCU | 0.332
AAUCUUCCAGGCUUCAUCAUCAAGAGGGGAAGGGACCUUAAUUCUAGGGUCUCCCCUUUACCCUCUCUCCUUAUUUAUUCUUGCCCCUCUGCUAUUAUUCCUUGCUGUUU | 0.587
GACCCUAAGAAGAGCAGGCAGCUGUGCUUGUUGAGAUAUGAGGACAGAAAAGGGACACCCUUUUAUGGUGUCAACUUUUGGAUCUGGGUUUCCCCCAGAUGUUGGGUUGC | 0.274
CUCAAACCCCAGUCACCAAUGCAAAUAAAAUCUUCUAUUUAAACCUGCUGGCUCAGUAUCGGCUGGCCAGUCAAGUGAAAGAGGAGGUGGAGCAUUUCCUGAAAGGCUUG | 0.318
AGUAGGUGGCGGAAGGACAUGGACACUGUCUAUCUCUGCUCUGUUGUAAUAAAUGUGAGAUCUUGGAUGUGUCUGCUCCUGGAAGCUGGGUAGUUCCUGCUGUUUGCAGG | 0.521
GCCAAACCAGGCCUCCACCGACCCACCUGCCUGGAGAUUUCCUCUAUGUAGGCAACCCUGCCACUGCUGGGCACCUCUAACUGGCCCUUUGGCCCCACCCAAGCCCAAAC | 0.267
UCGGAGCAUGGUGUUUUCAUUCCCCCUUCCUAGUGAACCACAGGUUUUAGCAUUGUCUUGUUCUGUCCCUUCCACUUCUAACUCCACUGGCUCCAUGAUUCUCUGAGUGG | 9.63
UUUAGGGGGUUUGUUUGUUGGGUUGUUUUUUGUUUUUUGGUUUUUUUUAAUGACAAUGAAGUGACACUUUGACAUUUCCUACCUUUUGAGGACUUGAUCCUUCUCCAGGA | 1.69

Study 3 — method: competition protein-binding microarray; molecule type: double-stranded DNA, one strand shown; medium: in vitro; tested at: 2 µM; added: Pho4 competitor, 0.05 µM; reading: higher = stronger binding; constant ends, left off below: … GTCTTGATTCGCTTGACGCTGCTG
Target: Centromere-binding protein 1, full length, His-tagged (CBF1, Saccharomyces cerevisiae, UniProt P17106, residues 1-351)
Sequence of UniProt P17106 (whole entry, looked up): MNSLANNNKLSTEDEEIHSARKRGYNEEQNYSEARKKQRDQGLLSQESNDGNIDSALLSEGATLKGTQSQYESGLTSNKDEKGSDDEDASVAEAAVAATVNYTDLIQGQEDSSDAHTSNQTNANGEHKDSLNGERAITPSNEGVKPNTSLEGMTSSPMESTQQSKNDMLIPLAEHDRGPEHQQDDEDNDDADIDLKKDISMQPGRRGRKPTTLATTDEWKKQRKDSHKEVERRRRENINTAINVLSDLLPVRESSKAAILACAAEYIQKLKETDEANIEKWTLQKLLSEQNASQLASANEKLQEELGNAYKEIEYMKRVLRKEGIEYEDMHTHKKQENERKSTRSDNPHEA
Setting: whole 60-bp probe, lowest competitor level
Strand | fluorescence intensity [a.u.]
CGTCCTAGCGATTGAGGAGTGGGTGCCATGAGGAAG | 77.4
CCGGTTGATAATACGCAGGTGACGTTTGATAATGTG | 227
CTAACGAAGGTTTTTCACGTGTTCTACAAGCCAAGT | 1440
AACCTGGAAGTGGGCCACATGTTGTAAAAGGAAGCT | 93.1
AGGAACGCTTAAAACATCGTGGAGTGAGTGTGGTAA | 68.5
CGTCCTAGTGATTGCGGTGTGGGTGCCATGAGGAAG | 78
AATTATTTAAGCTCACACAGGCAGAAATCAAGGGAT | 89.2
TGGTGGTAATTTTGGAACGTGCAAAACCTCTGGTAT | 126
TGCGCAACAACTTGTCACGTTACTTTATGTCTAGAA | 1190
GGATGTTTTCCAGATGTCGTGATGGTTTCACGAAGC | 130
CTTCTGTAAATTTGTCACAGTACTTGACGCGCCCCG | 74.6
ACACAATAAGTAAATATATTTTAAAAAAGTACTCCG | 112
TGAATGACTTGTTGGAACGTGGTGAAATTTCTTTGG | 91.1
TCTCGAAATTTGTCTTTCGTGATGGTTGCACAGTCT | 71.5
AAAGCGGTAATTTGTCACGACACTTCACATATCTAT | 326
GCCATCCAAAACTTGCCCGTGGTGAACTCATTCGGA | 81.9
GGTGTTGGAACTACCCACGTGGTGATTCTGGTATTT | 1110
ATCAGAAGACCGCGAAACGTGCCGATGCAACCTTTT | 116
AGCGCCAATTGGTTACTCGTGAAGCTCAGATTAAAG | 89.3
ACCCTTTTTCCTTGCCACGTTTTCACTCAGATCTAA | 132
TGTTTTTTCTTCTGTCAGGTGAAAGTATAGGACCAA | 184
ATTTCTCAATACCATCACGTGCGATCTAAGAAGATG | 4650
GTCTTGTCTCATTGCCGTGTGGGTGTCCCCACTTCA | 82.3
AGGAACCTCAATCGGCACGGCCAACTCGCAAGCGCA | 59.5
AAATTACTAAGTTGTAGCGTGGGTGACGCCGTATGA | 64.4

Further values, each from its own experiment
Strand | target | assay | test system | scale | quantity | value
GGAGTGCGCACTCC (dsDNA) | KAT6A 1-85 Q25A (Homo sapiens, UniProt Q92794) | ITC | double-stranded DNA, one strand shown | relative to: WT | relative binding | 3

Repeated from above (study 1):
Strand | fitted relative affinity
GACGTTATCCTTCTCCTGACGTGCTAG | 0.504 z-score
GACGGTTACGACTTTCGGGACGTGCTA | 0.922 z-score
GACGAACTGAGTTTCGCGACGTGCTAG | 0.761 z-score
GACGATATCAGACTGGGGACGTGCTAG | -0.184 z-score
